Results from different studies.
Compare with care: the assays were run in different laboratories. Numbers after ± are the reported error.
Fibroin-modulator-binding protein-1: Fibroin-modulator-binding protein-1 99-193 (Bombyx mori, UniProt Q5FBS0)
SPT15/TOA1/TOA2/SUA7 1-240; 1-286; 1-122; 1-345: SPT15/TOA1/TOA2/SUA7 1-240; 1-286; 1-122; 1-345 (Saccharomyces cerevisiae)

With `GGGAGAACUUCGACCAGAAGUAAGACGCACCAUAACUACGCAAGAGUUCUCUCUGCCUGAUAUGUGCGCAUACAUGGAUCCUC (ssRNA; 2'-fluoro pyrimidines)` the relative binding was 18.2 RU (integrin alphaV/beta3 31-992/27-718 (Homo sapiens); SPR; RNA; with: MnCl2 1 mM; higher = more binding).
`colistin` gave an MIC of 64 µg/mL (Klebsiella pneumoniae; broth microdilution; clinical isolate RKI-No_138/16).
`GGGAGGGAGGGA (dsDNA)` has a Kd of 7650 nM (Fibroin-modulator-binding protein-1; ITC; double-stranded DNA, one strand shown).
With `GGGAGAACUUCGACCAGAAGCACUACGCAAACUCCUUCUGCCUGUGCUUGAAAAACGCAUUAUGUGCGCAUACAUGGAUCCUC (ssRNA; 2'-fluoro pyrimidines)` the relative binding was 24.1 RU (integrin alphaV/beta3 31-992/27-718 (Homo sapiens); SPR; RNA; with: MnCl2 1 mM; higher = more binding).
With `CTGAAGGGGGGGCTATAAAAGGGGGTGGGGGCTCCTCAAGTCAATCGGTCC (dsDNA; 5'-amino-C6 primer)` the Kd was 1.48 ± 0.16 nM (SPT15/TOA1/TOA2/SUA7 1-240; 1-286; 1-122; 1-345; array; double-stranded DNA, one strand shown; TBP:TFIIA:TFIIB ternary complex).
`DNA 1 CACTGGCCGTCTTACGGTCGCTCTGCTCGACG / DNA 2 CGACCGTAAGACGGCCAGTG (dsDNA; 20 bp, 3' 12 nt overhang)` gave a Kd of 224 ± 72.5 nM (RECQL 63-592 Y564A (Homo sapiens, UniProt P46063); fluorescence anisotropy; double-stranded DNA; with: Mg2+ 3 mM).
For `GGGAGAACUUCGACCAGAAGACCAAUAACCGUUCACAUUACGCAUCAACUCAACCUGCCUAUGUGCGCAUACAUGGAUCCUC (ssRNA; 2'-fluoro pyrimidines)`, the relative binding was 18.6 RU (integrin alphaV/beta3 31-992/27-718 (Homo sapiens); SPR; RNA; with: MnCl2 1 mM; higher = more binding).
`GSGAGKETRV` gave a binding intensity of 0.764 (human SCRIB PDZ3-4 tandem (MBP fusion); automated holdup; peptide, purified PDZ protein; concentration not given, unit not given; baseline: biotin control resin, higher = stronger binding).
`ACGAACGAACGA (dsDNA)` has a Kd of 11200 nM (Fibroin-modulator-binding protein-1; ITC; double-stranded DNA, one strand shown).
For `EKPIDSETKM`, the binding intensity was -0.131 (human SCRIB PDZ3-4 tandem (MBP fusion); automated holdup; peptide, crude extract; concentration not given, corrected by standard peak, unit not given; baseline: biotin control resin, higher = stronger binding).
With `TGGTATAAAGATCAATCGAGAATTCCTGGTATGGATCAAGTCAATCGGTCC (dsDNA; 5'-amino-C6 primer)` the Kd was 1.52 ± 0.19 nM (SPT15/TOA1/TOA2/SUA7 1-240; 1-286; 1-122; 1-345; array; double-stranded DNA, one strand shown; TBP:TFIIA:TFIIB ternary complex).
The Kd of `ACTAACTAACTA (dsDNA)` is reported as 635 ± 36.2 nM (Fibroin-modulator-binding protein-1; ITC; double-stranded DNA, one strand shown).
The relative binding of `GGGAGAACUUCGACCAGAAGUCGGAAGCGAUCCGAACAUUACGCAAAACACCUCCCUGCCUAUGUGCGCAUACAUGGAUCCUC (ssRNA; 2'-fluoro pyrimidines)` is reported as 75.1 RU (integrin alphaV/beta3 31-992/27-718 (Homo sapiens); SPR; RNA; with: MnCl2 1 mM; higher = more binding).
The Kd of `ACCAACCAACCA (dsDNA)` is reported as 2140 ± 231 nM (Fibroin-modulator-binding protein-1; ITC; double-stranded DNA, one strand shown).
For `ATTCCAGTATGGCGTATAAATAAAGGCGAGGAGAATCAAGTCAATCGGTCC (dsDNA; 5'-amino-C6 primer)`, the Kd was 1.3 ± 0.21 nM (SPT15/TOA1/TOA2/SUA7 1-240; 1-286; 1-122; 1-345; array; double-stranded DNA, one strand shown; TBP:TFIIA:TFIIB ternary complex).
The relative binding of `GGGAGAACUUCGACCAGAAGUCCUACACUGCGCAUAAUACGUAACUAUCGACCUACCUUUAUGUGCGCAUACAUGGAUCCUC (ssRNA; 2'-fluoro pyrimidines)` is reported as 8.8 RU (integrin alphaV/beta3 31-992/27-718 (Homo sapiens); SPR; RNA; with: MnCl2 1 mM; higher = more binding).
The Kd of `GTCGGTCGGTCG (dsDNA)` is reported as 7390 nM (Fibroin-modulator-binding protein-1; ITC; double-stranded DNA, one strand shown).
With `DNA 1 TGGGTGGGTAGGGTGGGTAGGGGAGGAT / DNA 2 ATCCTCCCCTA (DNA; intramolecular parallel G4, 5' overhang, 11-bp duplex)` the Kd was 4.1 ± 1.5 nM (REV1 330-833 P831L (Homo sapiens, UniProt Q9UBZ9); FP; folded DNA; KCl 100 mM).

Repeated from above:
The relative binding of `GGGAGAACUUCGACCAGAAGUCGGAAGCGAUCCGAACAUUACGCAAAACACCUCCCUGCCUAUGUGCGCAUACAUGGAUCCUC (ssRNA; 2'-fluoro pyrimidines)` is reported as 75.1 RU (integrin alphaV/beta3 31-992/27-718 (Homo sapiens); SPR; RNA; with: MnCl2 1 mM; higher = more binding).
For `GGGAGAACUUCGACCAGAAGACCAAUAACCGUUCACAUUACGCAUCAACUCAACCUGCCUAUGUGCGCAUACAUGGAUCCUC (ssRNA; 2'-fluoro pyrimidines)`, the relative binding was 18.6 RU (integrin alphaV/beta3 31-992/27-718 (Homo sapiens); SPR; RNA; with: MnCl2 1 mM; higher = more binding).
`GGGAGGGAGGGA (dsDNA)` has a Kd of 7650 nM (Fibroin-modulator-binding protein-1; ITC; double-stranded DNA, one strand shown).
